Assay results gathered from unrelated publications.
Each line is one published result; not all experiments were run side by side. Values joined by “and” are separate records of one study, mostly repeats; a detail may differ. ± marks the error that the study gave.
USP49 ZnF-UBD domain: Ubiquitin carboxyl-terminal hydrolase 49, ZnF-UBD domain (USP49, Homo sapiens, UniProt Q70CQ1)
Chain of UniProt Q70CQ1 (whole entry, looked up): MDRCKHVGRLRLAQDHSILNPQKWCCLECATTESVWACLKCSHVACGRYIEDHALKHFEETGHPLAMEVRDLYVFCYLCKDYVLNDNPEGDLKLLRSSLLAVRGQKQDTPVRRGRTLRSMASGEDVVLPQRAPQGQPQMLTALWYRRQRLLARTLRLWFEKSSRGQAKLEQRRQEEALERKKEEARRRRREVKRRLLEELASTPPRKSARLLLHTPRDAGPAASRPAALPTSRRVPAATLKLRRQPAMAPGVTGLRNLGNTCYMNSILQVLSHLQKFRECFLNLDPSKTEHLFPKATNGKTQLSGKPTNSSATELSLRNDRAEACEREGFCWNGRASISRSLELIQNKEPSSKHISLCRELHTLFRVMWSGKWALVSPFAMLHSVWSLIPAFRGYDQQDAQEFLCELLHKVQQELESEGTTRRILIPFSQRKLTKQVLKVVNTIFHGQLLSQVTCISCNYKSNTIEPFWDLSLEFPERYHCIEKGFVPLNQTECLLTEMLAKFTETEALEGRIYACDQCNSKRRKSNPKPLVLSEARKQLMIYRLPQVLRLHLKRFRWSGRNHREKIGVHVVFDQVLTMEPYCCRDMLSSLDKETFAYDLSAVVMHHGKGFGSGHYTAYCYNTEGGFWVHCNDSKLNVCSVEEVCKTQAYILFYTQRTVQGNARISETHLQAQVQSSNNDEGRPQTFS

SMILES | tested on | assay | test system | setting | endpoint | result
C[C@H]1O[C@@H](O[C@H]2CC[C@@]3(C)[C@@H](CC[C@]4(C)[C@@H]3C=C[C@]35OC[C@@]6(CCC(C)(C)C[C@H]63)[C@@H](O)C[C@]54C)[C@]2(C)CO)[C@H](O)[C@@H](O[C@@H]2O[C@H](CO)[C@@H](O)[C@H](O)[C@H]2O)[C@H]1O | – | UHPLC-MS/MS | mouse, plasma | oral, 50 mg/kg, 4 h | plasma concentration | 1.03 ng/mL
O=C(O)CCn1ccccc1=O | USP49 ZnF-UBD domain | – | – | – | Kd | > 1000 µM
CCOCc1nc(O)c(-c2nnc(Cc3ccc(Cl)cn3)o2)c(O)c1-c1c(OC)cccc1OC | – | – | anaesthetized rats, plasma | intravenous infusion, 100 µg/kg/min for 15 min, 30 min washout | plasma concentration | 10.3 ± 0.777 µM
Cc1c(-c2ccc(N3CCc4cccc(C(=O)Nc5nc6ccccc6s5)c4C3)nc2C(=O)O)cnn1CC12CC3(C)CC(C)(C1)CC(OCCNCC[C@H](O)CO)(C3)C2 | – | – | anaesthetized male beagle dog | iv infusion, 0.1 mg/kg/min, 10 min | plasma concentration | 85 ng/mL
O=C(O)CCc1cn2cccnc2n1 | USP49 ZnF-UBD domain | – | – | – | Kd | > 1000 µM
O=S(=O)(c1ccc(-c2ccc3nccc(Nc4ccncn4)c3c2)cc1)N1CCOCC1 | – | – | female BALB/c mice, plasma | intraperitoneal, 10 mg/kg, 1 h | plasma concentration | 1450 ng/mL and 1380 ng/mL
O=Cc1cc2c(cc1F)C(=O)N(C1CCC(=O)NC1=O)C2 (stereo not shown) | – | – | CD-1 mice | intravenous, 1 mg/kg, 8 h | plasma concentration | not detected
Cn1cc([C@H]2C[C@H]3CSC(N)=N[C@@]3(c3ccc(F)cc3F)CO2)cn1 | – | – | male 129/SVE mouse, plasma | subcutaneous, 50 mg/kg, 18 h | plasma concentration | 0.025 µM
NCc1cc2c(cc1F)C(=O)N(C1CCC(=O)NC1=O)C2 (stereo not shown) | – | – | CD-1 mice | intravenous, 1 mg/kg, 8 h | plasma concentration | not detected
COc1cccc(-c2n[nH]c(SCc3ccccn3)n2)c1OC | – | – | Sprague-Dawley rats, both sexes | oral dietary, 10 mg/kg/day, day 90, 1 h | plasma concentration | 467 ng/mL
Cc1cc2sc(N)nc2c2cccnc12 | – | LC-MS | BALB/c mice, female | intraperitoneal, 30 mg/kg, 0.5 h | plasma concentration | 1410 ± 160 ng/mL
CCN1CCN(Cc2ccc(NC(=O)c3ccc(C)c(NC(=O)c4cncc(-c5cccs5)c4)c3)cc2C(F)(F)F)CC1 | – | LC-MS/MS | C57BL/6 mouse, plasma | intraperitoneal, 10 mg/kg single dose, 8 h | plasma concentration | 13 ng/mL and 36 ng/mL and 42 ng/mL
CC(=O)N(C)C1CCN(c2cc(F)cc(NC(=O)c3cc4c(F)ccc(C)c4[nH]3)c2)C1 (stereo not shown) | – | – | CD1 mouse, plasma | intravenous, 1 mg/kg, 4 h | plasma concentration | 6.27 ng/mL

A few entries again:
SMILES | tested on | assay | test system | setting | endpoint | result
O=C(O)CCc1cn2cccnc2n1 | USP49 ZnF-UBD domain | – | – | – | Kd | > 1000 µM
